# Measurements pooled from the literature.
# Each line is one published result; not all experiments were run side by side. ± gives the spread as reported.
SMILES,cell line,assay,system,setting,how to read,endpoint,result
CNc1c(C)n(C)n(-c2ccccc2)c1=O,HepaRG PXR knockout,item: CYP2B6,,"300 µM, 72 h",relative to: untreated,mRNA level,increased
CC(=O)O[C@H]1CC[C@]2(C)C3=C(CC[C@H]2C1(C)C)[C@@]1(C)CC[C@@H]([C@H](C)CCC=C(C)C)[C@]1(C)CC3,HCT-15,"cell growth or viability, SRB",,50 µM,,inhibition,39.4%
CCC(=C(c1ccc(O)cc1)c1ccc(OCCN(C)CCOCCOCCOCCOCCOCCOCCOCCOCCOCCOCCOCCN(C)CCOc2ccc(C(=C(CC)c3ccccc3)c3ccc(O)cc3)cc2)cc1)c1ccccc1 (mixture of isomers),U2OS expressing ERβ,,,"10 µM, Z-Z:Z-E:E-E 1:2:1 isomer mix",,cell density,6%
C=CC(=C)CC[C@]1(C)[C@H](C)CC[C@@]23C(=C[C@H](OC(=O)CCCCC)C[C@@H]12)[C@@H](OC(C)=O)O[C@H]3OC(C)=O,KB-VIN (P-gp-overexpressing),"cell growth, SRB",,,,IC50,0.61 µM
CC#N.[Cl][Mn-2]([Cl])([Cl])[Cl].[Mn+2].c1ccc(CN2CCCN3CCCN(CCCN(Cc4ccccc4)CC3)CC2)cc1,THP-1,cytotoxicity,,,,IC90,5.9 µM
CC[N+]1=C(/C=C/c2ccc(OCCCl)cc2)C(C)(C)c2c1ccc1ccccc21,BEAS-2B,,,"5 µM, 30 min, 37 °C",,cell membrane permeability,20.5%
O=c1c(-c2nc3ccccc3s2)cc2c(n1NS(=O)(=O)c1ccccc1)CCCCCC2,HEp-2,trypan blue,,72 h,,maximum non-toxic concentration,140 µg/mL
CC1OC(Oc2c(-c3ccc(O)cc3)oc3cc(O)cc(O)c3c2=O)C(OC(=O)C=Cc2ccc(O)cc2)C(O)C1OC(=O)C=Cc1ccc(O)cc1 (stereo not shown),human liver cancer cells,cell growth,,48 h,,IC50,> 10 µM
N#Cc1cccc(/C=C/C(=O)c2ccc(O)cc2)c1,patient-derived glioblastoma cells,Alamar Blue,,concentration not given,,cytotoxicity,active
CC(C)=C1CC[C@]2(COC(=O)c3ccccc3)[C@@H](OC(=O)c3ccccc3)/C=C(\C)CC[C@@H]3O[C@@]3(C)C[C@@H](OC(=O)c3cccnc3)[C@@H]12,HepG2,"cell growth or viability, CCK-8",,"50 µM, 24 h",,viability,87.7%
COc1cc2nc(NC3CCN(Cc4ccc(C(N)=O)cc4)CC3)nc(Oc3c(C)cc(C#N)cc3C)c2cc1OC,TZM-bl,"cell growth or viability, XTT",,,,CC50,12.5 µM
CC(=O)N[C@H](C(=O)N[C@H](C(=O)N[C@@H](CCCNC(=N)N)C(=O)N1Cc2ccccc2C[C@H]1C(=O)N[C@@H](Cc1ccccc1)C(N)=O)C1CCCCC1)C(C)C,human PBMC,"Bio-Plex multiplex, item: IL-2",,"500 µg/mL, 24 h",,cytokine level,6.4 ± 2.3 pg/mL
C=CC(=O)Nc1cc(Nc2ncnc(Nc3cc(Cl)c(F)cc3C(C)(C)O)n2)c(OC)cc1N(C)CCN(C)C,human hepatocytes,,,,,CLint,7.1 (µL/min)/(10⁶ cells)
OCC1CSC(c2ccc(O)cc2O)S1 (stereo not shown),B16-F10,MTT,,"up to 25 µM, 24 h",,cytotoxicity,not toxic
O=C(CCl)Sc1nnc(-c2n[nH]c(=O)c3ccccc23)o1,HepG2,"qRT-PCR, item: caspase-3",,"IC50, 8 h",relative to: untreated,mRNA level,0.98 ± 0.12 fold
COC1C=COC2(C)Oc3c(C)c(O)c4c(c3C2=O)C2=NC3(CCN(CC(C)C)CC3)NC2=C(NC(=O)C(C)=CC=CC(C)C(O)C(C)C(O)C(C)C(OC(=O)c2cncnc2)C1C)C4=O (stereo not shown),THP-1 derived macrophages,,,,relative to: intracellular over extracellular,intracellular/extracellular ratio,25
OC[C@H]1O[C@@H](n2cnc3c(O)ncnc32)[C@H](F)[C@@H]1O,SNB-78,sulforhodamine B,,"11 days, galactose medium",,CC50,> 250 µM
O=C(Nc1ccc(Oc2ccc(Cl)cc2)cc1)c1cc2ccc(Cl)cc2s1,C2C12 differentiated myotubes,,,"10 µM, 72 h",,viability,79%
Cc1cc(/C=C/C#N)cc(C)c1Oc1nc(NC2CCN(Cc3ccc(S(N)(=O)=O)cc3)CC2)nc2ncccc12,TZM-bl,"cell growth or viability, XTT",,,,CC50,> 52.7 µM
Nc1ncnc2c1ncn2[C@@H]1O[C@H](CO)[C@@H](O)[C@H]1F,SNB-78,"cytotoxicity, sulforhodamine B",,11 days,relative to: glucose medium over galactose medium,CC50 ratio,2 to 10 fold
[99Tc+].[C-]#[N+]CC(C)(C)OC.[C-]#[N+]CC(C)(C)OC.[C-]#[N+]CC(C)(C)OC.[C-]#[N+]CC(C)(C)OC.[C-]#[N+]CC(C)(C)OC.[C-]#[N+]CC(C)(C)OC,rat sandwich-cultured hepatocytes,,,20 min,,total efflux,64 ± 8.2%
O=C(Cc1ccc(OCc2ccccc2)cc1)NC1(C(=O)O)CCN(C(=O)c2ccc(-c3cccc(Cl)c3)cc2)CC1,BEAS-2B,cytotoxicity,,3 days,,IC50,> 100 µM
CC(=O)OC[C@H]1O[C@@H](Sc2sc(C(=O)c3ccc(C)cc3)c(N)c2-c2nc3ccccc3s2)[C@H](OC(C)=O)[C@@H](OC(C)=O)[C@@H]1OC(C)=O,HEp-2,cytotoxicity,,72 h,,maximum non-toxic concentration,90 µg/mL
O=c1[nH]cc(C(c2ccc(Cl)cc2)c2c[nH]c(=O)[nH]c2=O)c(=O)[nH]1,Ba/F3,,,1 µg/mL,,cytotoxicity,not toxic
OC[C@H]1O[C@@H](OCCCCCCCCCCC(F)(F)C(F)(F)C(F)(F)C(F)(F)C(F)(F)C(F)(F)C(F)(F)C(F)(F)F)[C@H](O)[C@@H](O)[C@H]1O,B16-F10,"cytotoxicity, MTT",,24 h,,EC50,> 250 µM
C=C(c1cc(F)c(C(=O)O)c(F)c1)c1cc2c(cc1C)C(C)(C)CCC2(C)C,TK6,"cytotoxicity, GreenScreen",,without S9,,lowest effective concentration,0.74 µg/mL
CC(=O)O[C@@H]1[C@@H](OC(C)=O)[C@H](Sc2sc(C(=O)c3ccc(Br)cc3)c(N)c2-c2nc3ccccc3s2)OC[C@@H]1OC(C)=O,HEp-2,cytotoxicity,,72 h,,maximum non-toxic concentration,90 µg/mL
CCCCn1cc(C(=O)O)c(=O)c2cc(F)c(N)c([N+](=O)[O-])c21,SW-620,"cell growth, SRB",,72 h,,IC50,84.6 ± 5.07 µg/mL
Cc1ccc(NC(=O)N2CCCN3CCC(c4ccc(C#Cc5cccnc5)cc4)C3C2)cc1 (stereo not shown),MDCK-MDR1,,Caco-2,,,Papp A→B,0.02 ×10⁻⁶ cm/s
Cc1cc(C#N)cc(C)c1Oc1nc(NC2CCN(Cc3cccc(Cl)c3)CC2)nc2ccccc12,TZM-bl,"cell growth or viability, XTT",,,,CC50,> 0.251 µM
c1ccc(CN2CCNCCN(Cc3ccccc3)CCNCC2)cc1,THP-1,cytotoxicity,,,,IC90,> 25 µM
Nc1ccn([C@@H]2O[C@H](CO)[C@@H](O)[C@H]2F)c(=O)n1,iCell cardiomyocytes,sulforhodamine B,,"11 days, galactose medium",,CC50,> 250 µM
CC(C)=CCC1CC(=O)C(C)=CC2C=C(C)CC(c3ccccc3)C2C(=O)C2=C(O)C(C)(CC=C1C)C(=O)C(C)(C)C2=O (stereo not shown),HEp-2,,,"concentration not given, at antiviral concentrations",,cytotoxicity,not toxic
CC/C=C\C/C=C\C/C=C\C/C=C\C/C=C\C/C=C\CCC(=O)OC(CO)COP(=O)(O)OCCN (stereo not shown),human brain-like endothelial cell monolayer,LC-MS,in vitro BBB model,"10 µM, 180 min, pH 7.4",,Papp,75 ×10⁻⁶ cm/s
Cc1ccc(OCC(=O)N(Cc2cccs2)c2ccn[nH]2)cc1,human peripheral blood lymphocytes,item: mitotic index,,"3 h, with S9",,cytotoxic concentration,5 µg/mL
Cc1cc(/C=C/C#N)cc(C)c1Oc1nc(NC2CCN(Cc3ccc(C(N)=O)cc3)CC2)nc2ncccc12,TZM-bl,"cell growth or viability, XTT",,,,CC50,38 µM
CC(=O)[O-].F[P-](F)(F)(F)(F)F.[Co+2].c1ccc(CN2CCCNCCN(Cc3ccccc3)CCCNCC2)cc1,THP-1,cytotoxicity,,,,IC90,> 15 µM
